Published values pooled from the literature.
Every numbered part comes from another study and shows a few of its results, in no order. Substitutions count along the parent as printed.

Sample 1 — method: RNA Bind-n-Seq; molecule type: RNA; medium: in vitro; concentration: 365 nM; baseline: no-protein control; direction: higher = stronger binding; measurement: RBNS enrichment (R)
Target: RNA binding protein fox-1 homolog 2, RRM domain, GST-SBP tag (RBFOX2, Homo sapiens, UniProt O43251-10, residues 100-194)
Notes: natural RNA segment, single round, ends assumed
All sequences stand within: GGGAGUUCUACAGUCCGACGAUC … UGGAAUUCUCGGGUGCCAA
Residues (chain): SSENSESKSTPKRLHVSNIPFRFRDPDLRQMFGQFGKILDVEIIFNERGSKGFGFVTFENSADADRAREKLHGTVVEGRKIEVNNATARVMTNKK
CAUUUCUAUUUCUCCUCCAUGGGAGAAAAUAGAUAAGAGUAGAAACUGCAGGGAAAAUUAUUUGCAUAACAAUUCCUCUACUAACAAUCAGCUCCUUCCUGGAGACUGCC: 0.328
GCAGAGACAUAGUACCGAGCUGGGCUCCCGCCUUCAUGGAGCUCGUCCAGAAGCCCUGGCACAGAAGUUCUUGGCCAGUCUCAUGUCACAUGUCACGAUGUCAGAUUCAA: 0.277
GCAGGAAGUGGGAGGAUCUAAAAAUAGUUUUGAGAUUGUCUUUAAAAAUAAUAAAGAGUAGUUUCUUAUACUUGGUAUCAUUUUCAGUAUUUUCACAUCUCUGUACUGAA: 0.559
GAGAAAUGGCUUCCGGAUGAGAUGGACCUGACUGGGGAAACACCUUUGAGCUUGUAACCUAGCAGCUGGGGCCAGUGAGAGGUGACUCAGACACUCCUGCCUCAGUUUCU: 0.998
AGCAGCAAUUAAGUUGUUUGUAUUUUGCUUAACUAAAACAAAAAUGCUUUUAUCUUGCUAUAGAAUAAACACAUUUCAGUAAAAACUGUGGACUGUAUUUUGAUGCAACA: 1.02
AGUUUCUCUUUUGUGUGCUUUACCAAGUGGCCGGUGACUACAGGCCACCCCGAUUCUCACCACAAAGUUAGAAACCCUCCACUUUCUGUCCCUUGAACCAUAUCAGAAAA: 0.252
AUUUUUAGACUAAAUCCACGCAUGAAAAAUAUUUCCUCAUUAUUCUUAUCUGCUUAGUGGAUUUUAUGCCCUUAUAACUAAGUAAAGAAAAUUUAUGACUACCAAAUAUU: 5.45
CUUUUGUUUCCUGUAAACAGUGGUUGCAUGUGUAGGAAGUAACAAGCGAGUAUUCAGAUCAUACGAGGAGGCGUUCCUCGGUGCAUGACGGUCAGAUGGCCAUUUAUCAG: 42.8

Sample 2 — method: aptamer microarray, sandwich; molecule type: DNA with 2'F-ANA; medium: in vitro; concentration: 200 nM; together with: Cy3 exosite-II aptamer, 400 nM; direction: higher = stronger binding; measurement: mean fluorescence intensity; oligonucleotide: GGTTGGTGTGGTTGG
Target: Prothrombin, mature alpha-thrombin (F2, Homo sapiens, UniProt P00734)
Notes: whole 15-mer aptamer, many near background
2'F-ANA at 1 3 4 5 6 7 9 11 12 13 15: 87.1 a.u.
2'F-ANA at 7 8 9 10 11 13 15: 140 a.u.
2'F-ANA at 1 2 8 10 11 12 14: 60.6 a.u.
2'F-ANA at 1 4 6 8 10 12 13: 57.6 a.u.
2'F-ANA at 2 5 6 8 9 11 13 15: 60.9 a.u.
2'F-ANA at 7 8 11 13 15: 541 a.u.
2'F-ANA at 1 5 6 7 8 9 11 12 13 14 15: 50.7 a.u.
2'F-ANA at 2 5 6 10 11 14 15: 59.9 a.u.

Sample 3 — method: competition protein-binding microarray; molecule type: double-stranded DNA, one strand shown; medium: in vitro; concentration: 2 µM; together with: Pho4 competitor, 0.05 µM; direction: higher = stronger binding; measurement: fluorescence intensity; all sequences stand within: … GTCTTGATTCGCTTGACGCTGCTG
Target: Centromere-binding protein 1, full length, His-tagged (CBF1, Saccharomyces cerevisiae, UniProt P17106, residues 1-351)
UniProt P17106, sequence (whole entry, looked up): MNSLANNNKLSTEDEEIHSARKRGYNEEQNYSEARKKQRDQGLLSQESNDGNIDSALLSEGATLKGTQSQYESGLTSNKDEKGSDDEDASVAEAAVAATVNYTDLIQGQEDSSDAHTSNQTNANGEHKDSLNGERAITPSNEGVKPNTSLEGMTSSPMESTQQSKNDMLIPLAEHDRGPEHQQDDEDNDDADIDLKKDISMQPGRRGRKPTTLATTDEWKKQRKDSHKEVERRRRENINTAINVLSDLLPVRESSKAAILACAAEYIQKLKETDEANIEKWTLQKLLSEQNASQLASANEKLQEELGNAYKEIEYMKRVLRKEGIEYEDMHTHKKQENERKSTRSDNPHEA
Notes: whole 60-bp probe, lowest competitor level
CTAACGAAGGTTTGCAGGGTGGGTGACAAGCCAAGT: 66.2 a.u.
TATTATATTCTCCATCACGTTATTGAATATTTCGTT: 928 a.u.
CTTTCCCGATCTTTTCACGTGATATTAGCACATTTG: 3430 a.u.
AAACTGTCAAGGTTCCTCGTGACTCGGACGAATGTT: 592 a.u.
TCCTCCACAAACAATCTCGTGGTCGTTTATCCATAC: 195 a.u.
CATTTCTGGGAGCTGCATGTGGGTGACGCAGCAGCA: 96.3 a.u.
TGCGCAACAACTTGTGTAGTGGGTGTATGTCTAGAA: 65.3 a.u.
GTCTTGTCTCATTGAGAAGTGGGTGTCCCCACTTCA: 100 a.u.

Mixed results — starting sequence: viral docking peptide; TSVRRALFTGGSD
F8C  normalised enrichment score (CCNE2, cyclin fold, Cln2 fusion (human); yeast growth competition, sequencing; yeast; strong parent motif; baseline: not given, higher = stronger binding): 0.0527

Some of these lines once more (sample 2):
2'F-ANA at 7 8 9 10 11 13 15: 140 a.u.
2'F-ANA at 1 2 8 10 11 12 14: 60.6 a.u.
2'F-ANA at 1 4 6 8 10 12 13: 57.6 a.u.
2'F-ANA at 2 5 6 8 9 11 13 15: 60.9 a.u.
